# Measured values collected from several papers.
# Parts stem from different laboratories: compare values within a part only. Changes are numbered by the printed parent chain.

# Study 1 — technique: protein-binding microarray; molecule type: double-stranded DNA, one strand shown; sample: in vitro; concentration: 2540 nM top; setting: 60-bp whole probe; with: salmon DNA 0.4 mg/ml; reference: random background probes; direction: higher = stronger binding; constant ends, left off below: GCCTAGCAC … GTCTTGATTCGCTTGACGCTGCTG
# Target: Interferon regulatory factor 3, full length, phosphomimetic (IRF3, Homo sapiens, UniProt Q14653, residues 1-427, S386D/S396D/S398D/S402D/T404D/S405D)
# Construct (chain): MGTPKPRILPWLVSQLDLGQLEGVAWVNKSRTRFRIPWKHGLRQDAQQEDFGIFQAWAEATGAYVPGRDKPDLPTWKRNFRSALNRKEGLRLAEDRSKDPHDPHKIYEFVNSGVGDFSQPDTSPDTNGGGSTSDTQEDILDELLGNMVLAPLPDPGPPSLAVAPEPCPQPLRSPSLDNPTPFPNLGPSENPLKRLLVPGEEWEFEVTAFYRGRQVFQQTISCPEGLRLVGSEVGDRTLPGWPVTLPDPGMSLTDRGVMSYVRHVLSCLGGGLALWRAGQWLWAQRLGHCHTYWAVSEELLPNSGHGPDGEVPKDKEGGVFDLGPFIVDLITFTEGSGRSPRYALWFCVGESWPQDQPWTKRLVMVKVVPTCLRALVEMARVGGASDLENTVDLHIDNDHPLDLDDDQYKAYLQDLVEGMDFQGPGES
Strand,fitted relative affinity
CCGAGTCCCTATCTCCTCACGTGCTAG,0.913 z-score
GACGATATCAGTCTCGAGACGTGCTAG,1.08 z-score
TTAGGTATCCTTCTCCCTTAGTGCTAG,7.18 z-score
GACGGACTGGACCATCGGGACGTGCTA,-0.581 z-score
TTAGGACTGCTTTTCCTCTAGTGCTAG,0.2 z-score
TTAGATATCGGGTATAGATTAGTGCTA,-0.1 z-score
CGTATCTTCATTGTCATGTAGTGCTAG,1.3 z-score
TCGTGGATTGCGACCCCTAGGTGCTAG,-0.811 z-score

# Study 2 — technique: protein-binding microarray; molecule type: double-stranded DNA, one strand shown; sample: in vitro; concentration: not given; direction: higher = stronger binding
# Target: Protein max, full length (MAX, Homo sapiens, UniProt P61244-2, residues 1-151)
# Setting: k-mer, scored over probes, only values ≥0.25
Strand,E-score
ATCGCGTG,0.406
GTGCACGA,0.348
ATCACCAC,0.261
CGAATCAC,0.281
GGTAGCAC,0.275
AACGTGCC,0.383
CACGGTGC,0.349
AACATCGT,0.273

# Study 3 — technique: protein binding microarray; molecule type: double-stranded DNA, one strand shown; sample: in vitro; concentration: not given; reference: not given; direction: higher = stronger binding
# Target: Histone acetyltransferase KAT6A, both winged helices, GST fusion (KAT6A, Homo sapiens, UniProt Q92794, residues 1-181)
# Setting: 8-mer, flanks averaged, mean of 2 arrays, mostly near background
# Target sequence (chain): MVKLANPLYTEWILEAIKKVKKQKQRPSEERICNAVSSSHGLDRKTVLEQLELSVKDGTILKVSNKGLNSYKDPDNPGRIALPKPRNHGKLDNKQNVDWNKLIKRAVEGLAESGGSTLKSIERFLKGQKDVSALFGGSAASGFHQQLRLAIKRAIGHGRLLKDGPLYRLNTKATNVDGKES
Strand,E-score
CAACCGGC,0.229
CAGCGCGG,0.32
AGGCCTAA,-0.148
AATCTATG,-0.0996
GCTGTTCC,0.0383
ATACAACG,0.0534
ACCGTAGA,0.138
AGTACGGG,0.143

# Further values, each from its own experiment — starting sequence: viral docking peptide; CKVKRKLFGSENI
Variant,target,test,system,setting,how to read,endpoint,value
CKVKKKLFGSENI [R5K],"CCNE2, cyclin fold, Cln2 fusion (human)","yeast growth competition, sequencing",yeast,strong parent motif,"reference: not given, higher = stronger binding",normalised enrichment score,0.156
